# Measurements of several laboratories.
# A part holds a random share of what one study measured.

# Set 1 — method: RNA Bind-n-Seq; molecule type: RNA; sample: in vitro; concentration: 200 nM; notes: whole 134-nt RNA, ends assumed; added: 150 mM LiCl; reference: input library; direction: higher = stronger binding; each molecule: 7-deaza-guanosine replaces G
# Target: Fragile X messenger ribonucleoprotein 1, C-terminal low-complexity region (Fmr1, Mus musculus, UniProt P35922)
# Constant ends, left off below: GGGAGUUCUACAGUCCGACGAUC … UGGAAUUCUCGGGUGUCAAGG
Sequence,log2 enrichment
CAAGUCCUGUGCUACACAUCGUAUGUACCGAAUCGGGCCCCGGCCCCGGGCCCCGGAAAGUAUUAUGUUACGCCGUUCGGAUCUGCACUU,-2.63
ACCAUGCAGGUGGGCAUCUUUGGGAAGUGGGGCAAGGGGGGGAUAGGGAGGGGGGUAACACUUUGGGAACAGGUGGUCAAAGGUCGUUUC,1.26
CCUGUGCUACACAUCGUAUGUACCGAAUCGGGUUUUUGGGUUUUUUUGGGUUUUUUUGGGAAAGUAUUAUGUUACGCCGUUCGGAUCUGC,-1.05
CACAGACAUCACGCACCCACACAGACACAGAGGGAAGGGGUUGGGAUGGGGACAGGGUGCACAGCAGGGCGGGGUAGGACCCCAGCCCCU,0.786
UCUCAGCACCCUCGUGAAACUGGACAAGAAGCCAGUGGAGACCAACGGUCCUGAUGCCAAUCACGAGUACAGUACAAGCAGCCAGCAUAU,-0.488
AAGUCCUGUGCUACACAUCGUAUGUACCGAAUCGGGAAAAAAAGGGAGGGUUUGGGAAAGUAUUAUGUUACGCCGUUCGGAUCUGCACUU,-1.99
CCUCAAGUCCUGUGCUACACAUCGUAUGUACCGAAUCGGGCGGGGCGGCGGGGAAAGUAUUAUGUUACGCCGUUCGGAUCUGCACUUCCA,-0.881
GCAGGAAGUAAAAACAAAUGGAAAUGCUUCGGAUAGUGGCAGAAAUGGGGGUUGCUAAGGAAAGGGUGGGAUGGGAGUGGGUAAAGAGUU,1.36

# Set 2 — method: RNA Bind-n-Seq; molecule type: RNA; sample: in vitro; concentration: not given; reference: input RNA pool; direction: higher = stronger binding
# Target: RING finger protein unkempt homolog, zinc fingers 1-6, GST-SBP tag (UNK, Homo sapiens, UniProt Q9C0B0, residues 30-357)
# Notes: RNA with constant flanks, human and mouse sites, ends assumed
# Constant ends, left off below: GGGAGUUCUACAGUCCGACGAUC … CAACAGAGGAUUGAGCAUCA
# Residues (chain): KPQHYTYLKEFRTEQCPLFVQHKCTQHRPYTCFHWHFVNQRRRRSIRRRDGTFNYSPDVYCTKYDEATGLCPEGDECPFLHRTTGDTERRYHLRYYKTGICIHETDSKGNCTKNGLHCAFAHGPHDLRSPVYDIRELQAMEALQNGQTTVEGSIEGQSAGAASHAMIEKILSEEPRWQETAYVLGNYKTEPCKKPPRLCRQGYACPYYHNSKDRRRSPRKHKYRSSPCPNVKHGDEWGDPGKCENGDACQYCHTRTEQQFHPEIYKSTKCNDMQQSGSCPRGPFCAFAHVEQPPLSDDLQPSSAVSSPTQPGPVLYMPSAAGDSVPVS
Sequence,bound/input enrichment [ratio]
AUUCCAUAUUUAUUACGGCUGAGACAAGUUAAGGAUGAAACUCUUCAGGCUGCAGUUAGAGAAAUUUUGGCUUUAAUUGGUUAUGUAGAUCCAGUGAAAGGCAGAGGAAUCCGAAUCCUC,0.551
GAAUCCACAAAUGAACAGUUACAGAUACACUAUAAGGUUUGCUAUGCGCGUGUCCUUGAUUACAGAAGGAAAUUCAUUGAGGCCGCCCAGAGGUACAAUGAGCUCUCUUACAAGACAAUA,0.398
CCAAGUGAUUCAUUCCAAGGACAGGCAGCCCAGUCUGGUGUUUGGAAUGACGACAGUAUGUUAGGGCCUAGUCAAAAUUUUGAAGCUGAGUCAAUUCAAGAUAAUGCGCAUAUGGCAGAG,0.823
CUUUGUCUAGCAAAUAAAAGAUGUUAAUAUAUUCCUGUUAUUGGCAUGUGCACGACUGUUAUUAGAAGCCACUUUAUCAUUUUCCUGCUUUAAAUAGAAAUGUCUAUUUAUGAAUUCUGC,2.83
ACUGCCUUUACCCUGCUGUAUAAUAAACAACCAGACACUUGGCAACUGUUGAUACAGAUGGUAGUCCCGAAUCACUUUUUAUAUGUUUUAACAUUUGAAAUUCAAGUGUACCUGCCAUAA,0.122
CAGAAAAUCGAUGAGCUCUUCUCUGGGAAGCUGUACCUCAUUGGAAUUGCAGCCAUUGUGGUAGCUGUCAUUAUGAUCUUUGAGAUGAUUCUGAGCAUGGUGCUGUGCUGUGGCAUCCGG,0.138
CCAGUCCGAAAAAGAAUGCUGGAAAAACGAGGGGAAGACUUUAAAAAAGAAGGGAAAAUAUACAGACUGAGGACUCAAGAUGACGGUGAAGACGAGAACAACACUUGGAAUGGAAACUCC,0.437
ACAGGUUCUGAGUGGACCCGGACAGUACUCACUCUGAACUCUCGUUCUGAGGUAGAAUCUAUGCCCCCACCGAGGACCAGUGCCUCCUCAGUGAGUUUGCUUUCUGUACUGAGACAGCAG,0.135
GAGUUCCAAAGUGUAGUCCCUCCCAAAGUCAUUUGUGUGAGGCAGAGAAAGCCACACUCUGAACACAUUUCAUGUCUCAGGAAUUCACAUUCCAGAUUCAGGAAUUUUAUUCCAAAGUCC,0.0879

# Set 3 — method: protein-binding microarray; molecule type: double-stranded DNA, one strand shown; sample: in vitro; concentration: 940 nM top; notes: 60-bp whole probe; added: salmon DNA 0.4 mg/ml; reference: random background probes; direction: higher = stronger binding; constant ends, left off below: GCCTAGCAC … GTCTTGATTCGCTTGACGCTGCTG
# Target: Interferon regulatory factor 5, full length, phosphomimetic (IRF5, Homo sapiens, UniProt Q13568-2, residues 1-514, S451D/S453D/S456D/S462D)
Sequence,fitted relative affinity
TCAGAAATCACCCTTGGAACTGTGCTA,0.0436 z-score
GACGGTTTCGGTTTTCGGGACGTGCTA,12.6 z-score
TTAGGTCTCGGTCCCGGTTAGTGCTAG,3.7 z-score
GACGGTATCGGATTCGGGACGTGCTAG,3.54 z-score
TCAATTTCCACTTTGACACTGTGCTAG,0.745 z-score
TTAGATCTCAGTCTGGATTAGTGCTAG,0.146 z-score
ACCAAAATCAAGTCTGGGCTAGTGCTA,-0.614 z-score
TTAGGCCTCGGTCTCGGTTAGTGCTAG,1.65 z-score
TCAAGCTTCTTTTTTATACTGTGCTAG,0.992 z-score
TTAGGTTTCCTACTGCTGTAGTGCTAG,0.692 z-score
GACGAACTGAGTCTCCAGACGTGCTAG,-0.389 z-score
GACGGTAACGGTCTCGGGACGTGCTAG,0.603 z-score

# Mixed results
Molecule,target,test,test system,conditions,how to read,endpoint,value
"PhoQ, residues 284 288 289 292 302 303 SSCLAV","PhoP, residues 12 14 15 18 19 QWHVF (Escherichia coli, UniProt P23836)","Sort-seq, refers to: YFP reporter",E. coli,"PhoQ-PhoP variant library, added: 10 µM Mg2+","reference: high Mg2+ state, higher = stronger signaling",fold induction,17.4

# Some of these lines once more (set 3):
Sequence,fitted relative affinity
TCAGAAATCACCCTTGGAACTGTGCTA,0.0436 z-score
TTAGGTCTCGGTCCCGGTTAGTGCTAG,3.7 z-score
GACGGTAACGGTCTCGGGACGTGCTAG,0.603 z-score
TTAGGCCTCGGTCTCGGTTAGTGCTAG,1.65 z-score
